Published values from different studies.

| Compound | test | system | conditions | scale | Cmax |
| --- | --- | --- | --- | --- | --- |
| COc1cc(N2CCC(N3CCN(C)CC3)CC2)ccc1Nc1ncnc(Nc2ccccc2S(=O)(=O)C(C)C)n1 |  | human, plasma | oral, 125 mg, day 28 |  | 643 ng/mL |
| CNC(=O)c1ccc(-c2cnc3ncc(Cc4ccc5ncccc5c4)n3n2)cc1F |  | human moderate hepatic impairment NCI | oral, 200 mg single dose, mean |  | 2120 ng/mL |
| O=C(O)CCC(=O)O.[2H]C([2H])([2H])Oc1cc(C)c2[nH]ccc2c1CN1CC[C@@H](C2CC2)C[C@H]1c1ccc(C(=O)O)cc1 |  | human, plasma | 200 mg once daily, day 1, multiple ascending dose, geometric mean |  | 2570 ng/mL |
| CC(C)[C@H](N)C(=O)NCCCS(=O)(=O)O |  | human both sexes, plasma | oral, 256.5 mg once daily, day 1, fasted capsule |  | 8510 ng/mL |
| C=CCn1c(=O)c2cnc(Nc3ccc(N4CCN(C)CC4)cc3)nc2n1-c1cccc(C(C)(C)O)n1 |  | human | oral, 175 mg twice daily, monotherapy lead-in, -5 days | geometric mean | 1040 nM |
| C[C@@H]1CCO[C@H]2Cn3cc(C(=O)NCc4ccc(F)cc4F)c(=O)c(O)c3C(=O)N12 |  | human paediatric patients, weight 6 to under sample A kg, plasma | oral, 4.8 mg granules, steady state, geometric mean, population PK post-hoc, N 1 |  | 2370 ng/mL |
| COc1ncc(-c2nc3c(n2C(C)C)[C@H](c2ccc(Cl)cc2)N(c2cc(Cl)cn(C)c2=O)C3=O)c(OC)n1 | LC-MS/MS | human, plasma | oral, 350 mg, cycle 2 day 1, high-dose arm |  | 2600 ng/mL |
| O=C(COc1ccc(Cl)cc1)NC12CC(c3nnc([C@H]4C[C@@H](OC(F)(F)F)C4)o3)(C1)C2 |  | healthy human volunteers fasted, plasma | oral, 400 mg single dose, arithmetic mean |  | 4450 nM |
| CCOc1c([C@H](C)n2nc(C)c3c(N)ncnc32)cc(Cl)c(F)c1[C@@H]1CNC(=O)C1 |  | human, indolent lymphoma, plasma | oral, 20 mg, day 15 |  | 1600 nM |

For quick reference, copied from above:
| Compound | test | system | conditions | scale | Cmax |
| --- | --- | --- | --- | --- | --- |
| CC(C)[C@H](N)C(=O)NCCCS(=O)(=O)O |  | human both sexes, plasma | oral, 256.5 mg once daily, day 1, fasted capsule |  | 8510 ng/mL |
